Results from different studies.
Compare with care: the assays were run in different laboratories. Several values in a cell are separate wells, animals, samples, runs or records. ± gives the spread as reported.
B1: desmoglein-1; sequence looked up; chain EWIKFAAACREGEDNSKRNPIAKIHSDCAANQQVTYRISGVGIDQPPYGIFVINQKTGEINITSIVDREVTPFFIIYCRALNSMGQDLERPLELRVRVLDINDNPPVFSMATFAGQIEENSNANTLVMILNATDADEPNNLNSKIAFKIIRQEPSDSPMFIINRNTGEIRTMNNFLDREQYGQYALAVRGSDRDGGADGMSAECECNIKILDVNDNIPYMEQSSYTIEIQENTLNSNLLEIRVIDLDEEFSANWMAVIFFISGNEGNWFEIEMNERTNVGILKVVKPLDYEAMQSLQLSIGVRNKAEFHHSIMSQYKLKASAISVTVLNVIEGPVFRPGSKTYVVTGNMGSNDKVGDFVATDLDTGRPSTTVRYVMGNNPADLLAVDSRTGKLTLKNKVTKEQYNMLGGKYQGTILSIDDNLQRTCTGTININIQSFGNDDRTNTEPNTKITTNTGRQESTSSTNYDTSTTSTDSSQVYSSEPGNGAKDLLSDNVHFGPAGIGLLIMGFLVLGLVPFLMICCDCGGAPRSAAGFEPVPECSDGAIHSWAVEGPQPEPRDITTVIPQIPPDNANIIECIDNSGVYTNEYGGREMQDLGGGERMTGFELTEGVKTSGMPEICQEYSGTLRRNSMRECREGGLNMNFMESYFCQKAYAYADEDEGRPSNDCLLIYDIEGVGSPAGSVGCCSFIGEDLDDSFLDTLGPKFKKLADISLGKESYPDLDPSWPPQSTEPVCLPQETEPVVSGHPPISPHFGTTTVISESTYPSGPGVLHPKPILDPLGYGNVTVTESYTTSDTLKPSVHVHDNRPASNVVVTERVVGPISGADLHGMLEMPDLRDGSNVIVTERVIAPSSSLPTSLTIHHPRESSNVVVTERVIQPTSGMIGSLSMHPELANAHNVIVTERVVSGAGVTGISGTTGISGGIGSSGLVGTSMGAGSGALSGAGISGGGIGLSSLGGTASIGHMRSSSDHHFNQTIGSASPSTARSRITKYSTVQYSK
B2: corneodesmosin; sequence looked up; chain KSIGTFSDPCKDPTRITSPNDPCLTGKGDSSGFSSYSGSSSSGSSISSARSSGGGSSGSSSGSSIAQGGSAGSFKPGTGYSQVSYSSGSGSSLQGASGSSQLGSSSSHSGNSGSHSGSSSSHSSSSSSFQFSSSSFQVGNGSALPTNDNSYRGILNPSQPGQSSSSSQTFGVSSSGQSVSSNQRPCSSDIPDSPCSGGPIVSHSGPYIPSSHSVSGGQRPVVVVVDQHGSGAPGVVQGPPCSNGGLPGKPCPPITSVDKSYGGYEVVGGSSDSYLVPGMTYSKGKIYPVGYFTKENPVKGSPGVPSFAAGPPISEGKYFSSNPIIPSQSAASSAIAFQPVGTGGVQLCGGGSTGSKGPCSPSSSRVPSSSSISSSSGLPYHPCGSASQSPCSPPGTGSFSSSSSSQSSGKIILQPCGSKSSSSGHPCMSVSSLTLTGGPDGSPHPDPSAGAKPCGSSSAGKIPCRSIRDILAQVKPLGPQLADPEVFLPQGELLNSP
B3: clathrin light chain A; sequence looked up; chain MAELDPFGAPAGAPGGPALGNGVAGAGEEDPAAAFLAQQESEIAGIENDEAFAILDGGAPGPQPHGEPPGGPDAVDGVMNGEYYQESNGPTDSYAAISQVDRLQSEPESIRKWREEQMERLEALDANSRKQEAEWKEKAIKELEEWYARQDEQLQKTKANNRVADEAFYKQPFADVIGYVTNINHPCYSLEQAAEEAFVNDIDESSPGTEWERVARLCDFNPKSSKQAKDVSRMRSVLISLKQAPLVH
B4: APOBEC3C; sequence looked up; chain MNPQIRNPMKAMYPGTFYFQFKNLWEANDRNETWLCFTVEGIKRRSVVSWKTGVFRNQVDSETHCHAERCFLSWFCDDILSPNTKYQVTWYTSWSPCPDCAGEVAEFLARHSNVNLTIFTARLYYFQYPCYQEGLRSLSQEGVAVEIMDYEDFKYCWENFVYNDNEPFKPWKGLKTNFRLLKRRLRESLQ
B5: CDC5L; sequence looked up; chain MPRIMIKGGVWRNTEDEILKAAVMKYGKNQWSRIASLLHRKSAKQCKARWYEWLDPSIKKTEWSREEEEKLLHLAKLMPTQWRTIAPIIGRTAAQCLEHYEFLLDKAAQRDNEEETTDDPRKLKPGEIDPNPETKPARPDPIDMDEDELEMLSEARARLANTQGKKAKRKAREKQLEEARRLAALQKRRELRAAGIEIQKKRKRKRGVDYNAEIPFEKKPALGFYDTSEENYQALDADFRKLRQQDLDGELRSEKEGRDRKKDKQHLKRKKESDLPSAILQTSGVSEFTKKRSKLVLPAPQISDAELQEVVKVGQASEIARQTAEESGITNSASSTLLSEYNVTNNSVALRTPRTPASQDRILQEAQNLMALTNVDTPLKGGLNTPLHESDFSGVTPQRQVVQTPNTVLSTPFRTPSNGAEGLTPRSGTTPKPVINSTPGRTPLRDKLNINPEDGMADYSDPSYVKQMERESREHLRLGLLGLPAPKNDFEIVLPENAEKELEEREIDDTYIEDAADVDARKQAIRDAERVKEMKRMHKAVQKDLPRPSEVNETILRPLNVEPPLTDLQKSEELIKKEMITMLHYDLLHHPYEPSGNKKGKTVGFGTNNSEHITYLEHNPYEKFSKEELKKAQDVLVQEMEVVKQGMSHGELSSEAYNQVWEECYSQVLYLPGQSRYTRANLASKKDRIESLEKRLEINRGHMTTEAKRAAKMEKKMKILLGGYQSRAMGLMKQLNDLWDQIEQAHLELRTFEELKKHEDSAIPRRLECLKEDVQRQQEREKELQHRYADLLLEKETLKSKF

`GWTLNSAGYLLGPHAVDNHRSFNDKHGFT-NH2 (C-amide)` gave a mRNA level of 2.2 and 2.35 and 2.03 and 1.44 (RT-qPCR, refers to: Ocln; peptide, mouse, DSS-induced colitis, colon; ip, 3 µM, 3% DSS, unit not given; baseline: Gapdh).
For `aspterric acid`, the inhibition was 22.6% (hypocotyl length; Arabidopsis thaliana Col-0 seeds; 3.125 µg/mL, seed germination; baseline: water control).
For `B1 (desmoglein-1)`, “log2 fold change” read -0.689 (peptide binding, SILAC pull-down; concentration not given; baseline: non-acetylated over acetylated NIT1 peptide).
The IC50 of `VPKFHLPVE` is reported as greater than 20 µM (Mamu-A1*02601 MHC class I; peptide binding; peptide, Chinese rhesus macaque).
The EC50 of `oseltamivir carboxylate` is reported as greater than 100 µM (Influenza A virus H3N2; cytopathic effect, MTS; MDCK).
The specific lysis of `KLPQLCTEL` is reported as 0.3% and 2.4% (ASPC1 (HLA-A2− HPV−); 111In release; peptide; concentration not given, 16 h, E:T 25:1, IVS 5, together with: peptide-generated T-cell line).
Under “log2 fold change”, `B2 (corneodesmosin)` is recorded as 0.172 (peptide binding, SILAC pull-down; concentration not given; baseline: non-acetylated over acetylated NIT1 peptide).
The specific lysis of `KISEYRHYC` is reported as 45.1% (Ca-Ski (HLA-A2+ HPV+); 111In release; peptide; concentration not given, 16 h, E:T 25:1 IVS 5, together with: peptide-generated T-cell line).
For `PSETPQAEVGPTGCPHR (cystathionine beta-synthase)`, “log2 fold change” read -0.101 (peptide binding, SILAC pull-down; concentration not given; baseline: non-acetylated over acetylated NIT1 peptide).
For `RTLEDLLMGT`, the specific lysis was 25.8% (HN-4 (HLA-A2+ HPV+); 111In release; peptide; concentration not given, 16 h, E:T 25:1 IVS 5, together with: peptide-generated T-cell line).
The koff of `nonaarginine` is reported as 1430 ± 150 s⁻¹ (PorA peptide pore; peptide binding, planar bilayer single-channel recording; 0.5 µM, pH 7.4, +30 mV, trans side, 150 mM KCl).
`B3 (clathrin light chain A)` — result for “log2 fold change”: 2.61 (peptide binding, SILAC pull-down; concentration not given; baseline: non-acetylated over acetylated NIT1 peptide).
With `oseltamivir carboxylate` the EC50 was 6.5 µM (Influenza B virus; viral replication, MTS; MDCK).
For `glucagon`, the leg extraction was 31 ± 2.2% (isotope dilution; human, non-diabetic; intravenous infusion, 0.05 ng/kg/min, 100 to 120 min).
With `hexaarginine` the kon was 2.91e+07 ± 3e+06 M⁻¹ s⁻¹ (PorA peptide pore; peptide binding, planar bilayer single-channel recording; 0.5 µM, pH 7.4, +10 mV, trans side, 150 mM KCl).
Under “radial growth ratio”, `colistin` is recorded as 0.738 and 0.773 and 0.756 (Aspergillus fumigatus; pkcA G579R, solid minimal medium; 100 µM, 4 days, 37 °C; baseline: untreated).
For `heparin sodium`, “drug-related decreased white cells” read 25% (healthy Chinese adult volunteers; continuous intravenous infusion, 8 IU/kg/h, 5 days).
Under “log2 fold change”, `B4 (APOBEC3C)` is recorded as -0.282 (peptide binding, SILAC pull-down; concentration not given; baseline: non-acetylated over acetylated NIT1 peptide).
With `(−)-antroquinonol A` the IC50 was greater than 25 µM (H441; cytotoxicity, MTS; 72 h).
`B5 (CDC5L)`: “log2 fold change” -1.99 (peptide binding, SILAC pull-down; concentration not given; baseline: non-acetylated over acetylated NIT1 peptide).
For `RNA 1 AACAAAACAAAAUAGCACCGUAAAGC / RNA 2 GCUUUACGGUGCUA (dsRNA; 14 bp duplex, 5' 12 nt overhang)`, the Kd was 0.144 µM (DEAD-box ATP-dependent RNA helicase RhpA 1-379 (Pseudomonas aeruginosa, UniProt Q9HX66); fluorescence polarization; double-stranded RNA; together with: AMP-PNP 1 mM).
`Teicoplanin A2-2` has an MIC of 0.5 µg/mL (Staphylococcus aureus; methicillin-resistant).
The mRNA level of `GWTLNSAGYLLGPRRIDHLLMIKEMPIARGREEAPGA / YAVDNHRSFNDKHGFT-NH2 (C-amide)` is reported as 2.88 and 4.06 and 4.67 and 4.04 and 5.19 and 3.72 and 3.6 (RT-qPCR, refers to: Tnf; chicken, DSS-induced colitis, ileum; ip, 50 µM, unit not given; baseline: Actb).
`DPDPE` has a retention time of 15.9 min (RP-HPLC; HALO C18 column; 25 µM, formic acid/methanol, 25 min gradient).
With `insulin human` the fold change was 1.13 (refers to: PTGS2 mRNA; uninfected mouse, brain; i.p., dose not given; baseline: PBS).
`Polymyxin B` gave a survival of 100% (mouse; intraperitoneal, 20 mg/kg single dose, day 7).
`CDKN2A`: “log2 fold change” 2.3 (peptide binding, SILAC pull-down; concentration not given; baseline: non-acetylated over acetylated NIT1 peptide).
Under binding, `CGTGAAACTGAACTCTCCCGAGGCCGCCGAGGTGCAGGCACTGCTGGCTCCGGCCGCCGCTGCCTGACACCGGGCAGGGCGTTCATCGTTCGTTTATCGCGGCCAGGCACTCTCTTGGTTGTCGATCCGTCGCGTCGGGGGGCAGACGGACCGCCGGTGAGGTCGCCGCACTCGCACCTTAGGGTGGGCGACTCGAGTGGCCCACCCGGCCACCCTCGGGGGAGTGGCCGGGTGGGCTCTCCACAGTTCAACGGCAATCACCATGGGGAGGCACCATCATGAGCGACATCACGAAGGAC (dsDNA)` is recorded as “binds” (bldD full length assumed (Streptomyces avermitilis, UniProt Q827R3); EMSA; double-stranded DNA, one strand shown; together with: c-di-GMP 60 µM).
`HVLVMSATRR` gave a chloride of 112 mmol/L and 114 mmol/L and 113 mmol/L (peptide, C57BL/6J mice, male, serum; subcutaneous osmotic pump, 3 mg/kg/day peptide basis, 8 weeks).
With `EVVPGFQAL` the IC50 was greater than 20 µM (Mamu-A1*02601 MHC class I; peptide binding; peptide, Chinese rhesus macaque).
`CEMDGQCKRDLKCCMGMCGKSCVSPVKA`: p38/β-actin ratio “decreased” (p38 MAPK (mouse); Western blot; peptide, RAW264.7; 0.1 and 1 µg/mL).
With `FAAPQFSLW` the IC50 was greater than 20 µM (Mamu-A1*02601 MHC class I; peptide binding; peptide, Chinese rhesus macaque).
`pertussis toxin` gave a distance travelled of 20 m and 30 m and 18 m and 23 m and 22 m (open field test; humanized mice, subarachnoid haemorrhage; dose not given).
`Met-enkephalin-Arg-Phe` — result for “maximum possible effect”: -1.64% and 5.93% and 4.47% and 13.8% and 1.87% and 8.83% and -5.35% and 10.2% (antinociception, hot plate; male ICR-CD1 mice; intracerebroventricular, 50 µg/animal, 45 min).
For `lead`, the viability was 0.57 (non-cancerous; CCK-8; 2.5 µM, 24 h, unit not given; baseline: untreated control).
`ANKHD1`: “log2 fold change” 0.00159 (peptide binding, SILAC pull-down; concentration not given; baseline: non-acetylated over acetylated NIT1 peptide).
`capreomycin sulfate` gave a Tlag of 0 min (guinea pig, serum; insufflation, dose not given, dry powder combination single dose).
For `mitragynine`, the Vmax was 0.0992 nmol/min/mg protein (substrate; human liver S9; 10 min, 2).

Excerpt of the above:
The IC50 of `VPKFHLPVE` is reported as greater than 20 µM (Mamu-A1*02601 MHC class I; peptide binding; peptide, Chinese rhesus macaque).
With `FAAPQFSLW` the IC50 was greater than 20 µM (Mamu-A1*02601 MHC class I; peptide binding; peptide, Chinese rhesus macaque).
With `hexaarginine` the kon was 2.91e+07 ± 3e+06 M⁻¹ s⁻¹ (PorA peptide pore; peptide binding, planar bilayer single-channel recording; 0.5 µM, pH 7.4, +10 mV, trans side, 150 mM KCl).
`Met-enkephalin-Arg-Phe` — result for “maximum possible effect”: -1.64% and 5.93% and 4.47% and 13.8% and 1.87% and 8.83% and -5.35% and 10.2% (antinociception, hot plate; male ICR-CD1 mice; intracerebroventricular, 50 µg/animal, 45 min).
For `lead`, the viability was 0.57 (non-cancerous; CCK-8; 2.5 µM, 24 h, unit not given; baseline: untreated control).
